Measured values of several laboratories.
Compare with care: the assays were run in different laboratories. Values joined by “and” are separate records of one study, mostly repeats; a detail may differ. ± gives the spread as reported.
rep main protease: Replicase polyprotein 1ab, main protease (rep, Severe acute respiratory syndrome coronavirus 2, UniProt P0DTD1)
Spike glycoprotein: Spike glycoprotein (Severe acute respiratory syndrome coronavirus 2, UniProt P0DTC2)

Structure (SMILES)	tested on	test	test system	setting	scale	measurement	result
Cl[TeH]1(Cl)(Cl)OCCO1	rep main protease	reporter gene (Gaussia luciferase), inhibitor	–	20 µM	–	inhibition	2.87%
C[C@H]1CC[C@@]2(OC1)O[C@H]1C[C@H]3[C@@H]4CC[C@@H]5C[C@@H](O[C@@H]6O[C@H](CO)[C@H](O)[C@H](O)[C@H]6O[C@@H]6O[C@H](CO)[C@@H](O)[C@H](O)[C@H]6O)CC[C@]5(C)[C@H]4CC[C@]3(C)[C@H]1[C@@H]2C	Spike glycoprotein	binding, BLI	–	–	–	koff	0.133 s⁻¹
CC(C)c1nc(CN(C)C(=O)N[C@H](C(=O)N[C@@H](Cc2ccccc2)C[C@H](O)[C@H](Cc2ccccc2)NC(=O)OCc2cncs2)C(C)C)cs1	rep main protease	reporter gene (mKate2), inhibitor	–	20 µM	–	inhibition	-0.327%
Cc1ccccc1C1(C(=O)NC[C@H](NC(=O)Cn2cncn2)c2ccc3ccccc3c2)CC1	rep main protease	enzyme activity, inhibitor	–	5 µM, run 2	–	inhibition	14.9%
Nc1ncnc2c([C@@H]3N[C@H](CO)[C@@H](O)[C@H]3O)c[nH]c12	Marburg virus	–	HeLa, Musoke	6.3 µM, 1 h	–	viral RNA copies	8.86e+06 copies/mL
O=C(O)c1cc(NCc2cc(O)ccc2O)ccc1O	rep main protease	reporter gene (Gaussia luciferase), inhibitor	–	20 µM	–	inhibition	2.08%
Nc1ncnc2c1ncn2C1CCN(C(=O)c2ccc(S(=O)(=O)F)cc2)CC1	cya (Bacillus anthracis, UniProt P40136)	–	–	–	–	kinact	0.000167 s⁻¹
CC(C)(C)[C@H](NC(=O)C(F)(F)F)C(=O)N1C[C@H]2[C@@H]([C@H]1C(=O)N[C@H](C#N)C[C@@H]1CCNC1=O)C2(C)C	–	–	human, fasted	oral, 1500 mg single dose, 28 days, no ritonavir	–	participants with severe adverse events	0%
Cn1cnc(Cn2c(=O)[nH]/c(=N\c3cc4cn(C)nc4cc3Cl)n(Cc3cc(F)c(F)cc3F)c2=O)n1	–	–	human, severe renal impairment, plasma	oral, 375 mg single dose, 24 h	–	unbound fraction	0.0165
O=C(NC[C@H]1CC2(CCC2)CN1C(=O)Cc1ccccc1O)c1ccc2c(c1)CCNC2=O	rep main protease	enzyme activity, inhibitor	–	5 µM, run 2	–	inhibition	15%
CC(C)=CCC[C@](C)(O[C@@H]1O[C@H](CO)[C@@H](O)[C@H](O)[C@H]1O)[C@H]1CC[C@]2(C)[C@@H]1[C@H](O)C[C@@H]1[C@@]3(C)CC[C@H](O[C@@H]4O[C@H](CO)[C@@H](O)[C@H](O)[C@H]4O)C(C)(C)[C@@H]3CC[C@]12C	Spike glycoprotein	binding, BLI	–	–	–	koff	0.505 s⁻¹
CCc1c(C(=O)C(N)=O)c2c(OCC(=O)O)cccc2n1Cc1ccccc1	C2C12	–	–	10 µM, together with: PB venom	baseline: venom alone	viability difference	38.8%
CC[C@H](C)[C@H](NC(=O)[C@H](CC(C)C)NC(=O)[C@H](Cc1c[nH]c2ccccc12)NC(=O)[C@H](CCC(N)=O)NC(=O)[C@@H](NC(=O)[C@H](Cc1ccccc1)NC(=O)[C@H](C)NC(=O)[C@H](CCCCNC(=O)COCCOCCNC(=O)COCCOCCNC(=O)CC[C@H](NC(=O)CCCCCCCCCCCCCCCCCCC(=O)O)C(=O)O)NC(=O)[C@H](CCC(N)=O)NC(=O)[C@H](C)NC(=O)[C@@H](NC(=O)[C@H](CCCCN)NC(=O)[C@H](CC(=O)O)NC(=O)[C@H](CC(C)C)NC(=O)C(C)(C)NC(=O)[C@@H](NC(=O)[C@H](CO)NC(=O)[C@H](Cc1ccc(O)cc1)NC(=O)[C@H](CC(=O)O)NC(=O)[C@H](CO)NC(=O)[C@@H](NC(=O)[C@H](Cc1ccccc1)NC(=O)[C@@H](NC(=O)CNC(=O)[C@H](CCC(=O)O)NC(=O)C(C)(C)NC(=O)[C@@H](N)Cc1ccc(O)cc1)[C@@H](C)O)[C@@H](C)O)[C@@H](C)CC)[C@@H](C)CC)C(C)C)C(=O)N[C@@H](C)C(=O)NCC(=O)NCC(=O)N1CCC[C@H]1C(=O)N[C@@H](CO)C(=O)N[C@@H](CO)C(=O)NCC(=O)N[C@@H](C)C(=O)N1CCC[C@H]1C(=O)N1CCC[C@H]1C(=O)N1CCC[C@H]1C(=O)N[C@@H](CO)C(N)=O	–	–	healthy subjects, single ascending dose	2.5 mg, titre ≥1:20	–	treatment-induced ADA positive subjects	0%
CNC(=O)[C@@H](NC(=O)[C@H](CC(C)C)[C@H](O)C(=O)NO)C(C)(C)C	C2C12	–	–	100 µM, without venom, unit not given	baseline: cells alone (=100)	viability	99.5 and 96.8 and 91.5
O=C(CC1CC(=O)NC(=O)C1)NC[C@@H]1CC2(CCC2)CN1C(=O)[C@@H]1CCCC12CCOCC2	rep main protease	enzyme activity, inhibitor	–	5 µM, mean of runs	–	inhibition	15.6%
O=C[C@H](O)[C@@H](O)[C@@H](O)[C@H](O)CO	ctxB (Vibrio cholerae, UniProt P01556)	binding	–	–	–	Hill slope	-1.35
Cc1cncc(C(=O)NC[C@H]2c3ccccc3CCN2C(=O)c2cccn3nnnc23)c1	rep main protease	enzyme activity, inhibitor	–	5 µM, run 2	–	inhibition	25.7%
NC(=O)NC[C@H](N)C(=O)O	rep main protease	reporter gene (mKate2), inhibitor	–	20 µM	–	inhibition	0.0331%
CC[C@H](C)[C@H](NC(=O)[C@H](CC(C)C)NC(=O)[C@H](Cc1c[nH]c2ccccc12)NC(=O)[C@H](CCC(N)=O)NC(=O)[C@@H](NC(=O)[C@H](Cc1ccccc1)NC(=O)[C@H](C)NC(=O)[C@H](CCCCNC(=O)COCCOCCNC(=O)COCCOCCNC(=O)CC[C@H](NC(=O)CCCCCCCCCCCCCCCCCCC(=O)O)C(=O)O)NC(=O)[C@H](CCC(N)=O)NC(=O)[C@H](C)NC(=O)[C@@H](NC(=O)[C@H](CCCCN)NC(=O)[C@H](CC(=O)O)NC(=O)[C@H](CC(C)C)NC(=O)C(C)(C)NC(=O)[C@@H](NC(=O)[C@H](CO)NC(=O)[C@H](Cc1ccc(O)cc1)NC(=O)[C@H](CC(=O)O)NC(=O)[C@H](CO)NC(=O)[C@@H](NC(=O)[C@H](Cc1ccccc1)NC(=O)[C@@H](NC(=O)CNC(=O)[C@H](CCC(=O)O)NC(=O)C(C)(C)NC(=O)[C@@H](N)Cc1ccc(O)cc1)[C@@H](C)O)[C@@H](C)O)[C@@H](C)CC)[C@@H](C)CC)C(C)C)C(=O)N[C@@H](C)C(=O)NCC(=O)NCC(=O)N1CCC[C@H]1C(=O)N[C@@H](CO)C(=O)N[C@@H](CO)C(=O)NCC(=O)N[C@@H](C)C(=O)N1CCC[C@H]1C(=O)N1CCC[C@H]1C(=O)N1CCC[C@H]1C(=O)N[C@@H](CO)C(N)=O	–	–	human, plasma	subcutaneous, 15.0 mg once weekly, week 23, multiple doses	–	terminal half-life	126 h
CC[C@H](C)[C@H](NC(=O)[C@@H]1CCCN1C(=O)[C@H](C)NC(=O)[C@@H]1CSSC[C@@H]2NC(=O)[C@H](CC(=O)O)NC(=O)[C@H](CCCNC(=N)N)NC(=O)[C@H](CCC(=O)O)NC(=O)[C@H](CCCNC(=N)N)NC(=O)CNC(=O)[C@H](CC(=O)O)NC(=O)[C@@H]3CSSC[C@H](NC(=O)[C@H](CCC(=O)O)NC(=O)[C@H](CC(C)C)NC(=O)CNC(=O)[C@H](C)NC(=O)[C@H](CSSC[C@H](NC(=O)[C@H](Cc4ccccc4)NC(=O)[C@@H](N)CO)C(=O)N[C@@H](CC(C)C)C(=O)N[C@@H](C(C)C)C(=O)N[C@@H](CCCCN)C(=O)N[C@@H](Cc4c[nH]c5ccccc45)C(=O)N[C@@H](CCCCN)C(=O)N[C@@H](CCC(N)=O)C(=O)N3)NC2=O)C(=O)N[C@@H](Cc2c[nH]c3ccccc23)C(=O)N[C@@H](CCCCN)C(=O)N[C@@H](CCCNC(=N)N)C(=O)N[C@@H](CO)C(=O)N[C@@H](CCCNC(=N)N)C(=O)N[C@@H](CC(N)=O)C(=O)N[C@@H](CCCCN)C(=O)N[C@@H](CO)C(=O)N[C@@H](CO)C(=O)N[C@@H](C(C)C)C(=O)N1)C(=O)N[C@H](C(=O)O)[C@@H](C)O	ASIC1 (Homo sapiens, UniProt P78348)	outside-out patch clamp	HEK-293T ASIC1a knockout	100 nM, wild type	baseline: before toxin	deactivation fold change	0.91 ± 0.27 fold
Cc1ccccc1C(=O)N[C@H](C)c1ccc2ccccc2c1	rep main protease	viral replication, Gluc reporter	SARS-CoV-2	20 µM	–	inhibition	1.09%
C#CC1(C(=O)NC[C@H](NC(=O)c2cncc3[nH]ccc23)c2ccc3ccccc3c2)CC1	rep main protease	enzyme activity, inhibitor	–	5 µM, run 2	–	inhibition	13.9%

Excerpt of the above:
Structure (SMILES)	tested on	test	test system	setting	scale	measurement	result
Nc1ncnc2c1ncn2C1CCN(C(=O)c2ccc(S(=O)(=O)F)cc2)CC1	cya (Bacillus anthracis, UniProt P40136)	–	–	–	–	kinact	0.000167 s⁻¹
